Results pooled from the literature.
Numbered parts are unrelated; each lists some results of a single study.
Sequence of UniProt Q5VT25 (whole entry, looked up): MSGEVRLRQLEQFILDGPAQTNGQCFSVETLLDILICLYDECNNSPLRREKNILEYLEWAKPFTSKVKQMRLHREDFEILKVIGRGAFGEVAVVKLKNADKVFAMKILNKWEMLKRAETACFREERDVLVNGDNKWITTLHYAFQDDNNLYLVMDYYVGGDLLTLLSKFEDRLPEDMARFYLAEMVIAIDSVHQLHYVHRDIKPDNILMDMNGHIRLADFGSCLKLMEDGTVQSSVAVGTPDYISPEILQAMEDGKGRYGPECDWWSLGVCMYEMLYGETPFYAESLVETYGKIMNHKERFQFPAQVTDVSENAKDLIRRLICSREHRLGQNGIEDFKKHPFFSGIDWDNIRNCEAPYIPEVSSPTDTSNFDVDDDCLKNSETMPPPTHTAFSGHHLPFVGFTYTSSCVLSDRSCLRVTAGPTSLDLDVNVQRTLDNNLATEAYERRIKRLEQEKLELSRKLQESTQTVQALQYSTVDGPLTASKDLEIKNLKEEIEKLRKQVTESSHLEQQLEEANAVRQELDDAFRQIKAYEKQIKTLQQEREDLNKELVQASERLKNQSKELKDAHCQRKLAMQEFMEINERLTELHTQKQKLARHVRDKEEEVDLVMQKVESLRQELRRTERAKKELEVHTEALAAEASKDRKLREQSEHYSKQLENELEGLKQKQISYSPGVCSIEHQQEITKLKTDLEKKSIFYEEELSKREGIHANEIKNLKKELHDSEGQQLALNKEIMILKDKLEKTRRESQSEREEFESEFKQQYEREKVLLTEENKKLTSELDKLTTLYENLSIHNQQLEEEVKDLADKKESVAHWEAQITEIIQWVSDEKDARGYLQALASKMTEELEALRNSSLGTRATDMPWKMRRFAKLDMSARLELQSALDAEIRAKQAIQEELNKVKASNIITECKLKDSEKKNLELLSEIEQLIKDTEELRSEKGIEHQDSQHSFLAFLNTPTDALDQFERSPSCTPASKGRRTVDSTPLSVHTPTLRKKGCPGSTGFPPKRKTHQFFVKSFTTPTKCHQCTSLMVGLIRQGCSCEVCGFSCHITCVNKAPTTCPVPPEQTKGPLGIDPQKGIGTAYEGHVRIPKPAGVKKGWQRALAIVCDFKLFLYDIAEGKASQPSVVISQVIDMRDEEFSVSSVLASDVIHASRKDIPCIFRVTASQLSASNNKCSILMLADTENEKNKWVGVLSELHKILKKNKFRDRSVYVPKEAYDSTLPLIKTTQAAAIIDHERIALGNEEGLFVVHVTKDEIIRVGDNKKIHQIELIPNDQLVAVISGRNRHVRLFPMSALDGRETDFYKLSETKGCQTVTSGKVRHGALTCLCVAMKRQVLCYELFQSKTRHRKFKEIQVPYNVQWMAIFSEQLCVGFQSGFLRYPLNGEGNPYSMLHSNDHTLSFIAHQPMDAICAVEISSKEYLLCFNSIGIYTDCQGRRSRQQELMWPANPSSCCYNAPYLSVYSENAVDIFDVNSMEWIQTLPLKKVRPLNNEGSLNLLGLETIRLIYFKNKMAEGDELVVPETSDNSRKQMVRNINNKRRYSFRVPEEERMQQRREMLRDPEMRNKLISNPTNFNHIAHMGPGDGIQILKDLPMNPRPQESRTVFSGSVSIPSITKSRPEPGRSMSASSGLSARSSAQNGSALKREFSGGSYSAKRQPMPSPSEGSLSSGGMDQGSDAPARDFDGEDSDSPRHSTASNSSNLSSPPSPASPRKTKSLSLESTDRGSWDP
Sequence of UniProt P50750 (whole entry, looked up): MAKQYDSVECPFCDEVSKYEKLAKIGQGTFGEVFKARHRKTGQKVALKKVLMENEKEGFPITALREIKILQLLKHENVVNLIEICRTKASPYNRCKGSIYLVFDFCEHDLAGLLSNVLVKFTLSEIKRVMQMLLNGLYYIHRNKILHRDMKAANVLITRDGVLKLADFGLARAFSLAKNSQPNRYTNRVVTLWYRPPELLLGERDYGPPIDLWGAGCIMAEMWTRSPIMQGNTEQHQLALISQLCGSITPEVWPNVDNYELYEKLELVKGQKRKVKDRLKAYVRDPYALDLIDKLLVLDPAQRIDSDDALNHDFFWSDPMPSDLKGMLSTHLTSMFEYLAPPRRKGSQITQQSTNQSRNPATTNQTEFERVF
Sequence of UniProt Q04771 (whole entry, looked up): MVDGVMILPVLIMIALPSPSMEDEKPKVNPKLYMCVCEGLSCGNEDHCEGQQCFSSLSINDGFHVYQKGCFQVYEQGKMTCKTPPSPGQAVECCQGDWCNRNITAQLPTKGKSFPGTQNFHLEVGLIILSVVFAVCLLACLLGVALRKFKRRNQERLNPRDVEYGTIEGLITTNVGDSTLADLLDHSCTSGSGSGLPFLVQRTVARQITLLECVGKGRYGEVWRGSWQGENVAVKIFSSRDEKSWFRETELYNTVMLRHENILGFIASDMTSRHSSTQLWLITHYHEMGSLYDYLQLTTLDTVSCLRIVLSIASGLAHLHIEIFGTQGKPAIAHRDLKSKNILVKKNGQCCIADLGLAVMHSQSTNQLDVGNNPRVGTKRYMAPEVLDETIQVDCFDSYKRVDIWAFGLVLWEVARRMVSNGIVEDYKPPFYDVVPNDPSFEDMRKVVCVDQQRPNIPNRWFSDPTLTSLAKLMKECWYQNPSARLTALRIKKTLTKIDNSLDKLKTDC
Sequence of UniProt P51812 (whole entry, looked up): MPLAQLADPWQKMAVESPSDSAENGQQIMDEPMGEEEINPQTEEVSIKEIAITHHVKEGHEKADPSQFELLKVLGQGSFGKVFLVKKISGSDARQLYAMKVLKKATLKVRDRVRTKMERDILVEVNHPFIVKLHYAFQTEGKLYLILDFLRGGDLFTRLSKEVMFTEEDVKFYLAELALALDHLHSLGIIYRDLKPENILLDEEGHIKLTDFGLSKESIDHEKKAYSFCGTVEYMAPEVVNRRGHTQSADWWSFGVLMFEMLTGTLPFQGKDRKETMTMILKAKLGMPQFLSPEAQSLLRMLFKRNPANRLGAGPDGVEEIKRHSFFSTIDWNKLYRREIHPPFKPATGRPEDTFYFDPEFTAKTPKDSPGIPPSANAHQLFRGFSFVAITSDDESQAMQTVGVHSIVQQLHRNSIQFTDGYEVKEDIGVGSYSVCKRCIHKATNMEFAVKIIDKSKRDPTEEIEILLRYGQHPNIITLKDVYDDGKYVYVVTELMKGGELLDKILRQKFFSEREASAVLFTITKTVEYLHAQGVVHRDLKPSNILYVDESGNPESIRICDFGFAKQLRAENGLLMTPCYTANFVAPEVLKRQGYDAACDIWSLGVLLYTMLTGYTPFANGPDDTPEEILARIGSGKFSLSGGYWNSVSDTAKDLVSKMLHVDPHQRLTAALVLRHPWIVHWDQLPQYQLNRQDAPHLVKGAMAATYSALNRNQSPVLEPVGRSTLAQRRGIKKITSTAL
Sequence of UniProt O95835 (whole entry, looked up): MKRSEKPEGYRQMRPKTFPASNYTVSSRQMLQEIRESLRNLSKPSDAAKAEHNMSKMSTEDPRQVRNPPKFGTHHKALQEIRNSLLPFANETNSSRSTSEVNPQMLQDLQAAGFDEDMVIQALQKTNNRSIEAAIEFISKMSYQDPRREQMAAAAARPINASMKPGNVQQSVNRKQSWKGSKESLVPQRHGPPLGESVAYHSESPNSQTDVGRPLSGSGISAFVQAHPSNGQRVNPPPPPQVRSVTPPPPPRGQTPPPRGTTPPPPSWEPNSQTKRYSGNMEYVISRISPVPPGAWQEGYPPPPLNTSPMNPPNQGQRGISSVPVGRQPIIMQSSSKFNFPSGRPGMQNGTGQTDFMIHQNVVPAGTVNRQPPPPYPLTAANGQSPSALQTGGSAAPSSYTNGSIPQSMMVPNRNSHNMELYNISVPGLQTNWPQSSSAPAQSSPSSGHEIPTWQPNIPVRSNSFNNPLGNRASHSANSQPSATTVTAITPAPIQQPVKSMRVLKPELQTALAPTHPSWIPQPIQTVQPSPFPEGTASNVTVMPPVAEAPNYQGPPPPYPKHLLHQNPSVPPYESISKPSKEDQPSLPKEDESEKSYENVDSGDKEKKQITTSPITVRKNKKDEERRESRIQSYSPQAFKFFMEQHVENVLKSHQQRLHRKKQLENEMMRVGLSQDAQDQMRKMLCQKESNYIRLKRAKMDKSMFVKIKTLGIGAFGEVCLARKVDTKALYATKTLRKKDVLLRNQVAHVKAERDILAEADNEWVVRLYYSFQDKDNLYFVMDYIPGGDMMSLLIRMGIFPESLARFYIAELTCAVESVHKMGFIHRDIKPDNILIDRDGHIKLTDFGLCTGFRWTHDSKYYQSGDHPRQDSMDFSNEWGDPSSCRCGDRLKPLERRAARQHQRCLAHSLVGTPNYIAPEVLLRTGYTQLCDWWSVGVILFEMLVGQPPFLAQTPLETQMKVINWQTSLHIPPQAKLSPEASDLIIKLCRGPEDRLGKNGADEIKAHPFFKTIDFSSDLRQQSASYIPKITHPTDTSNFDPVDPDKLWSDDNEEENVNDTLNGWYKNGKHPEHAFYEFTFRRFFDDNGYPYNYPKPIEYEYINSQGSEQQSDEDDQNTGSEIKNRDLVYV

Sample 1 — effect on: enzyme activity; action: inhibitor; concentration: 0.5 µM; reference: control
Structure (SMILES): CN(C)CCCn1cc(C2=C(c3c[nH]c4ccccc34)C(=O)NC2=O)c2ccccc21
For PLK1 (Homo sapiens, UniProt P53350): remaining activity read 101%.
The remaining activity was 46% (MAP3K9 (Homo sapiens, UniProt P80192)).
DYRK2 (Homo sapiens, UniProt Q92630) — remaining activity: 111%.
The remaining activity was 95.5% (VRK1 (Homo sapiens, UniProt Q99986)).
PRKD3 (Homo sapiens, UniProt O94806) — remaining activity: 54.6%.
For HCK (Homo sapiens, UniProt P08631): remaining activity read 92.3%.
For TAOK1 (Homo sapiens, UniProt Q7L7X3): remaining activity read 80.8%.
For RAF1 (Homo sapiens, UniProt P04049): remaining activity read 118%.
The remaining activity was 97.9% (PHKG2 (Homo sapiens, UniProt P15735)).
The remaining activity was 72.8% (SGK3 (Homo sapiens, UniProt Q96BR1)).
For FGFR2 (Homo sapiens, UniProt P21802): remaining activity read 95.4%.
It gave 87.7% for remaining activity (RIPK2 (Homo sapiens, UniProt O43353)).
For ACVR1 (Homo sapiens, UniProt Q04771): remaining activity read 96.3%.
It gave 68.5% for remaining activity (MAP4K5 (Homo sapiens, UniProt Q9Y4K4)).
It gave 84.7% for remaining activity (ULK1 (Homo sapiens, UniProt O75385)).
The remaining activity was 78.1% (PDGFRB (Homo sapiens, UniProt P09619)).
NTRK2 (Homo sapiens, UniProt Q16620) — remaining activity: 55.8%.
It gave 91.3% for remaining activity (INSRR (Homo sapiens, UniProt P14616)).
DSTYK (Homo sapiens, UniProt Q6XUX3) — remaining activity: 95%.

Sample 2 — action: inhibitor; concentration: 1 µM
Compound: CC#CC(=O)N1CCC[C@H]1c1nc(-c2ccc(C(=O)Nc3ccccn3)cc2)c2c(N)nccn12
For Tyrosine-protein kinase ABL1, non-phosphorylated (ABL1, Homo sapiens, UniProt P00519, F317L); enzyme activity: inhibition read 12%.
For DDR2 (Homo sapiens, UniProt Q16832); enzyme activity: inhibition read 8%.
For Ribosomal protein S6 kinase alpha-2, kinase domain 1 (RPS6KA2, Homo sapiens, UniProt Q15349): inhibition read 3%.
For DMPK (Homo sapiens, UniProt Q09013); enzyme activity: inhibition read 3%.
It gave 37% for inhibition (MAP3K13 (Homo sapiens, UniProt O43283); enzyme activity).
MINK1 (Homo sapiens, UniProt Q8N4C8); enzyme activity — inhibition: 9%.
MAP3K10 (Homo sapiens, UniProt Q02779); enzyme activity — inhibition: 33%.
TIE1 (Homo sapiens, UniProt P35590); enzyme activity — inhibition: 12%.
Ribosomal protein S6 kinase alpha-3, N-terminal kinase domain (RPS6KA3, Homo sapiens, UniProt P51812) — inhibition: 35%.
CDC42BPA (Homo sapiens, UniProt Q5VT25); enzyme activity — inhibition: 0%.
For WNK1 (Homo sapiens, UniProt Q9H4A3); enzyme activity: inhibition read 0%.

Sample 3 — effect on: enzyme activity; action: inhibitor; concentration: 10 µM
Target: Calcium/calmodulin-dependent protein kinase type II subunit alpha (CAMK2A, Homo sapiens, UniProt Q9UQM7)
Sequence of UniProt Q9UQM7 (whole entry, looked up): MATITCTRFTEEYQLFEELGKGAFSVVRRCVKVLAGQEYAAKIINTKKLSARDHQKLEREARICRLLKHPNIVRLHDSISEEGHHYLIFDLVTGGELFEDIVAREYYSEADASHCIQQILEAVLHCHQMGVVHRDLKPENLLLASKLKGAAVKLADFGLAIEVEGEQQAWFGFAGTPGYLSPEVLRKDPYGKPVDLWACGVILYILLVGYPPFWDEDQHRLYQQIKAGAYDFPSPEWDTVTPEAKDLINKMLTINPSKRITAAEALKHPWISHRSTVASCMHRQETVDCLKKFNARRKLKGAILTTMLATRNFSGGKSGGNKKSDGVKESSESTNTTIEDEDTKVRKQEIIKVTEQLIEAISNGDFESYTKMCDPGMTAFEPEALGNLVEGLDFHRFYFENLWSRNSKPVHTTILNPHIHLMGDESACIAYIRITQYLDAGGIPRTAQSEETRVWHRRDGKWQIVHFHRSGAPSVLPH
For CC1=C[C@H]2[C@@H](CC1)[C@H](C)CC[C@H]2[C@@H](C)C(=O)O, the inhibition was -17%.
With O=P(O)(O)O[C@H]1O[C@H](CO)[C@H](O)[C@H](O)[C@H]1O the inhibition was -6%.
For CCC[C@H](N[C@@H](C)C(=O)N1[C@H](C(=O)O)C[C@@H]2CCCC[C@@H]21)C(=O)OCC, the inhibition was -2%.
With CSC[C@H](N)C(=O)O the inhibition was -10%.
O=C(N[C@@H](Cc1ccccc1)C(=O)N[C@H](CO)Cc1ccccc1)c1ccccc1 has an inhibition of -45%.
With CCCCC/C=C\C/C=C\CCCCCCCC(=O)OC the inhibition was -74%.
CC(=O)Oc1cccc2c1C(=O)c1c(OC(C)=O)cc(C(=O)O)cc1C2=O has an inhibition of 30%.
The inhibition of CO/N=C(\C(=O)N[C@@H]1C(=O)N2C(C(=O)O)=C(CSc3nnnn3C)CS[C@H]12)c1csc(N)n1 is reported as -2%.
For C=C[C@H]1[C@H](O[C@@H]2O[C@H](CO)[C@@H](O)[C@H](O)[C@H]2O)OC=C(C(=O)OC)[C@H]1CCOC(=O)c1cc(O)c(O)c(O)c1, the inhibition was 12%.
O=C(O)C(O)Cc1cc2ccccc2[nH]1 (stereo not drawn) gave an inhibition of 28%.
For COc1cc(/C=C/C(=O)O)cc(OC)c1OC, the inhibition was -64%.

Sample 4 — effect on: cell-free assay; technique: competition with immobilised ligand; concentration: 1 µM
Structure (SMILES): CC(=O)c1c(NS(C)(=O)=O)c2cc(-c3ccc(Cl)cc3)c(-c3ccc(Cl)cc3Cl)nc2n(C)c1=O
It gave 95% for remaining binding (CDC42BPA (Homo sapiens, UniProt Q5VT25)).
It gave 83% for remaining binding (MAP3K7 (Homo sapiens, UniProt O43318)).
It gave 82% for remaining binding (CDK7 (Homo sapiens, UniProt P50613)).
FES (Homo sapiens, UniProt P07332) — remaining binding: 87%.
BRAF (Homo sapiens, UniProt P15056) — remaining binding: 90%.
DAPK1 (Homo sapiens, UniProt P53355) — remaining binding: 80%.
For PRKACB (Homo sapiens, UniProt P22694): remaining binding read 92%.
It gave 100% for remaining binding (FLT3 (Homo sapiens, UniProt P36888, N841I)).
For EPHB3 (Homo sapiens, UniProt P54753): remaining binding read 100%.
The remaining binding was 76% (BUB1 (Homo sapiens, UniProt O43683)).
For GRK2 (Homo sapiens, UniProt P25098): remaining binding read 74%.
CDK9 (Homo sapiens, UniProt P50750) — remaining binding: 91%.
The remaining binding was 90% (TEK (Homo sapiens, UniProt Q02763)).
For STK24 (Homo sapiens, UniProt Q9Y6E0): remaining binding read 97%.
It gave 81% for remaining binding (LATS1 (Homo sapiens, UniProt O95835)).
It gave 100% for remaining binding (CSNK1G2 (Homo sapiens, UniProt P78368)).
It gave 98% for remaining binding (PAK5 (Homo sapiens, UniProt Q9P286)).
For MERTK (Homo sapiens, UniProt Q12866): remaining binding read 100%.
PLK3 (Homo sapiens, UniProt Q9H4B4) — remaining binding: 89%.
It gave 100% for remaining binding (FLT3 (Homo sapiens, UniProt P36888, R834Q)).
For SGK1 (Homo sapiens, UniProt O00141): remaining binding read 100%.
For MAPK6 (Homo sapiens, UniProt Q16659): remaining binding read 100%.
It gave 100% for remaining binding (DAPK2 (Homo sapiens, UniProt Q9UIK4)).
PIK3CA (Homo sapiens, UniProt P42336, E545K) — remaining binding: 91%.
ALK (Homo sapiens, UniProt Q9UM73) — remaining binding: 95%.
